Measurements pooled from the literature.
Compare with care: the assays were run in different laboratories. “And” joins repeats or separate records; there may be more than shown. ± marks the error that the study gave.
Sequence of UniProt Q00987 (whole entry, looked up): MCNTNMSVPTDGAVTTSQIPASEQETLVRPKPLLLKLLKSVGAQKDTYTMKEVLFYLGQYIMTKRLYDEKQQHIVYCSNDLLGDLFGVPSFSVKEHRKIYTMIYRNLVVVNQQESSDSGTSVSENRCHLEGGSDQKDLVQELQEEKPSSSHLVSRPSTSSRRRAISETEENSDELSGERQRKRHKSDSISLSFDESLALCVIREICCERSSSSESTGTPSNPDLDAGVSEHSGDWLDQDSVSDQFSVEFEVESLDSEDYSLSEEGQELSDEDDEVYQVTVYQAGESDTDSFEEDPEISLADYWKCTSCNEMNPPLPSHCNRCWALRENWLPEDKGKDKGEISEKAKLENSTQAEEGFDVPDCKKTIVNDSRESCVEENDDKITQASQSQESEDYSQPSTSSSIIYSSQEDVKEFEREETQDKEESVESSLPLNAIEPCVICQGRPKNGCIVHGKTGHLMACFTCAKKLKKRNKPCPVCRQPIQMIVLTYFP
Sequence of UniProt Q9UH17 (whole entry, looked up): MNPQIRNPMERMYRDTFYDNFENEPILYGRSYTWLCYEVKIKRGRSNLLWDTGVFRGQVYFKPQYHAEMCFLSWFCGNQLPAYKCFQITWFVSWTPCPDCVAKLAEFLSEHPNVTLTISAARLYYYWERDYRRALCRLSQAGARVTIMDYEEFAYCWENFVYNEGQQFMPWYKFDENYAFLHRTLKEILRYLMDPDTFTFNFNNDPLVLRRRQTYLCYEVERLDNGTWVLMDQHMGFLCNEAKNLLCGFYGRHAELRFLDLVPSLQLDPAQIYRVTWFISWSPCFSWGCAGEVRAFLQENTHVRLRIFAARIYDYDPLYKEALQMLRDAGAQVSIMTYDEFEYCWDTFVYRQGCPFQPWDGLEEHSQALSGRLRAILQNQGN
Sequence of UniProt Q9UM07 (whole entry, looked up): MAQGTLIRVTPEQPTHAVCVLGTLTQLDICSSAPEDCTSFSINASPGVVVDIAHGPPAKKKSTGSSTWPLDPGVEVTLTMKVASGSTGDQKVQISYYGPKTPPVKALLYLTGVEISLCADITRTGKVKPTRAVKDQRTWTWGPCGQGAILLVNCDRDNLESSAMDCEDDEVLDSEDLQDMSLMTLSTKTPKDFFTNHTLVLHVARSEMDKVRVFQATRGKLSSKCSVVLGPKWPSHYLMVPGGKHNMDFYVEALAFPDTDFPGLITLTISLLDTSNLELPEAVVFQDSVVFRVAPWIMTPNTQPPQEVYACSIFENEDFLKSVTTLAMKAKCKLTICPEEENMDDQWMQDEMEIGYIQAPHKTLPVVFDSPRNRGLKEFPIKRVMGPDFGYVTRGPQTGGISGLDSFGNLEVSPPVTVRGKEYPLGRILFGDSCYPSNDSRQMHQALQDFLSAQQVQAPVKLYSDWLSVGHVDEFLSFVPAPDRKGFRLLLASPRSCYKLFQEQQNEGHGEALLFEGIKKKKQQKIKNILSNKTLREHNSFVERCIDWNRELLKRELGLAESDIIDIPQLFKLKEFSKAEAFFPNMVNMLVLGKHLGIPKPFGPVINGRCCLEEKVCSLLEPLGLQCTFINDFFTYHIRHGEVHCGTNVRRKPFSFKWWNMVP
Sequence of UniProt Q9DBL9 (whole entry, looked up): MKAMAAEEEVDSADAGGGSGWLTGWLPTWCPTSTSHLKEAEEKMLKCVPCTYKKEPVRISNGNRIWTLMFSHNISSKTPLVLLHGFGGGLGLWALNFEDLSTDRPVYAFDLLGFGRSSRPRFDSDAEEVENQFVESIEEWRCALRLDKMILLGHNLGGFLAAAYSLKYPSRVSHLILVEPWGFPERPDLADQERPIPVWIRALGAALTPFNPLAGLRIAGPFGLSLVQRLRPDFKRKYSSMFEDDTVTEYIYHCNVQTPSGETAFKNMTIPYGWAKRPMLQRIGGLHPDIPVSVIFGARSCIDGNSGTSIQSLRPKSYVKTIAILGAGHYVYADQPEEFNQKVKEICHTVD
Sequence of UniProt Q16644 (whole entry, looked up): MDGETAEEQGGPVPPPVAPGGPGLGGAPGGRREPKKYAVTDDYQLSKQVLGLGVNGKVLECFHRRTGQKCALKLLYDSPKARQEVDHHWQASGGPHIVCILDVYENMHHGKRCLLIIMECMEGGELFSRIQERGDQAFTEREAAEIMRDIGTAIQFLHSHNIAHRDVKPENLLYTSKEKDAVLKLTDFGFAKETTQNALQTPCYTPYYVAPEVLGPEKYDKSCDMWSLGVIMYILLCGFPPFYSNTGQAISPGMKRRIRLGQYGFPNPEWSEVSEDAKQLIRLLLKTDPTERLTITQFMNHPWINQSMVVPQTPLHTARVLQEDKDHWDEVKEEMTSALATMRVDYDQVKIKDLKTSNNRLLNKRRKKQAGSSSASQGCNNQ
Sequence of UniProt P45983 (whole entry, looked up): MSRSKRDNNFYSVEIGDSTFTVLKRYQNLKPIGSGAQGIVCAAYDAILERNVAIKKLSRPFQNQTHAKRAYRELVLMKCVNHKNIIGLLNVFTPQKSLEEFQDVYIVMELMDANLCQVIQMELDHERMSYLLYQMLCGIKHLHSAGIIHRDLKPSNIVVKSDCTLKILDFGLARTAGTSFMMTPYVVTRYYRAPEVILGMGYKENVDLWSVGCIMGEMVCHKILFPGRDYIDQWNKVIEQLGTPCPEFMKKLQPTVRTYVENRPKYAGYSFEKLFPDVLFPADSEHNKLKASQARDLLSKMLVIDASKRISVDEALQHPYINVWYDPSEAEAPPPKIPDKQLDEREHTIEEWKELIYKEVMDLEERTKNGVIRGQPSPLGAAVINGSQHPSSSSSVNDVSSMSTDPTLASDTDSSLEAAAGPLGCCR
Sequence of UniProt P70627 (whole entry, looked up): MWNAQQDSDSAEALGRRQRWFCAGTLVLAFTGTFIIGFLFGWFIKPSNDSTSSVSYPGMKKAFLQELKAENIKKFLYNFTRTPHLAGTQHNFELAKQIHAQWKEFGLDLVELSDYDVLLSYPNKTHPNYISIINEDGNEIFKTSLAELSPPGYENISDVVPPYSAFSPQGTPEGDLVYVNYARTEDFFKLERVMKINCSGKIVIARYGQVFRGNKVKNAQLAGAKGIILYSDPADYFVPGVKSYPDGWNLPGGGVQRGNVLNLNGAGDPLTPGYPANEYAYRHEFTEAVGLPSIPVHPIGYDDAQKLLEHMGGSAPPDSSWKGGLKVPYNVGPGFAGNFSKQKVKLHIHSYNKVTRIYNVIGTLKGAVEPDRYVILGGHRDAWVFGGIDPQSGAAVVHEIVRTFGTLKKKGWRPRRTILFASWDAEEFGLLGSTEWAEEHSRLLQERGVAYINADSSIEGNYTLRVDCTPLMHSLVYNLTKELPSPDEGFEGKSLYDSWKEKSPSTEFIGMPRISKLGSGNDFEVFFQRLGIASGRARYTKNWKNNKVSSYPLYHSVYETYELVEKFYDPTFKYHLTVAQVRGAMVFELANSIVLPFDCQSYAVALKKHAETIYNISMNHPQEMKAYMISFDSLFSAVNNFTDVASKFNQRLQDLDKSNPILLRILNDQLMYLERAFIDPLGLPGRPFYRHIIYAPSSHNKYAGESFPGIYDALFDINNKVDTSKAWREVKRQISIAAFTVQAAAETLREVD
Sequence of UniProt Q04912 (whole entry, looked up): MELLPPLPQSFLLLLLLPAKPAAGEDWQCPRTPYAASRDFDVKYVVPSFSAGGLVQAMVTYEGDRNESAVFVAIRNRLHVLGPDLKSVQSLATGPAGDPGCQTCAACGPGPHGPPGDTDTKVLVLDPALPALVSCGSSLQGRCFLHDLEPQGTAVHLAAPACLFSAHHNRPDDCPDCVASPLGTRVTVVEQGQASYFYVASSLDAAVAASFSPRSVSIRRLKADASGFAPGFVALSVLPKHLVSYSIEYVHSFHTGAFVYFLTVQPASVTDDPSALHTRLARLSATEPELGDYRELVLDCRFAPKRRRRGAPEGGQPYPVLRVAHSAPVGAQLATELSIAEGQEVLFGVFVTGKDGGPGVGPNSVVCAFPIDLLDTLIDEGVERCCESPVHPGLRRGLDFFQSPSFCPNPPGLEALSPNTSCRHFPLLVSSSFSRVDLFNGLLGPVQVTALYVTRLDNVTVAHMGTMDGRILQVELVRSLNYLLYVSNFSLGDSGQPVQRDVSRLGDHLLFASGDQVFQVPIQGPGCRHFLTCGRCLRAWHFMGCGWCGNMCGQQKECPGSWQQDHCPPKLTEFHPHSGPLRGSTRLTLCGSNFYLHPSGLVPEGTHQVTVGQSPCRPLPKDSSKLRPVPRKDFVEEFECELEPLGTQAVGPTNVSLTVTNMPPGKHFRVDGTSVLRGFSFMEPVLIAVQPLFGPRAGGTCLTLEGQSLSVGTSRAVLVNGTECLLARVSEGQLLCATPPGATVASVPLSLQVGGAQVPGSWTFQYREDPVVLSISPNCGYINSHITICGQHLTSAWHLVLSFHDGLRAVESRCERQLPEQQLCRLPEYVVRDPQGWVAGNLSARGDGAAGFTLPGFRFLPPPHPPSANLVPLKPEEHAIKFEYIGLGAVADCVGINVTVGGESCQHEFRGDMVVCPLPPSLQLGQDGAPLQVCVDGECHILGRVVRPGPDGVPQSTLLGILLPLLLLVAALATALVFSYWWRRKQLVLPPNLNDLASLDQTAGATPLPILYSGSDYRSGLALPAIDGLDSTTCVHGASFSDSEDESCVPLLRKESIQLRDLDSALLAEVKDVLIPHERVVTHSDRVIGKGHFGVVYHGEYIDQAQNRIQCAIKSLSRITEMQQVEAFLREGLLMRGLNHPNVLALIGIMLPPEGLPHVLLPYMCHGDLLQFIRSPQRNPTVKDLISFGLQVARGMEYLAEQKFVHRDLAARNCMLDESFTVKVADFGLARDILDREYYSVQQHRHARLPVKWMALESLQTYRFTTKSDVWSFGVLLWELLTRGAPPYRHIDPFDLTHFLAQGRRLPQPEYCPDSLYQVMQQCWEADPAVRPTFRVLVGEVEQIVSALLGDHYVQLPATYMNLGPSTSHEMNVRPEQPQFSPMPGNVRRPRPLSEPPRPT

Structure (SMILES)	target	test	test system	setting	scale	quantity	result
C[C@H](NCc1ccc(-c2ccc(C(F)(F)F)cc2)cc1)C(N)=O	Peroxisome proliferator-activated receptor gamma (PPARG, Homo sapiens, UniProt P37231)	radioligand binding, SafetyScreen panel		1 µM, with: 5.0 nM [3H]Rosiglitazone		inhibition	-3%
CC(C)C[C@H](NC(=O)[C@H]1O[C@@H]1C(=O)O)C(=O)NCCCCN=C(N)N	Pro-cathepsin H (Homo sapiens, UniProt P09668)	enzyme activity		concentration not given		remaining activity	101%
CN(C)[C@H]1C[C@@]23CC[C@@]4(O2)C(=CC[C@]2(C)[C@@H](c5ccc6ccncc6c5)CC[C@H]24)C=C3[C@@H](O)[C@@H]1O	Serine/threonine-protein kinase PAK 2 (PAK2, Homo sapiens, UniProt Q13177)	probe labelling, inhibitor, KiNativ ATP probe MS	native lysate	0.1 µM		inhibition	10.3%
CC(C)CC(O)(CC(C)C)c1cn(C(=O)N2CCCC2)nn1	Abhd5 (Mus musculus, UniProt Q9DBL9)	probe labelling, inhibitor, competitive ABPP-SILAC	mouse T cells	concentration not given, 4 h, single peptide	reference: treated over DMSO cells, lower = stronger inhibition	SILAC activity ratio	1.27 and 1.17
Cc1ccc(NC(=O)CCc2cccc(NC3=CC(=O)N(C4CCC(=O)NC4=O)C3=O)c2)cc1Cl (stereo not shown)	Zinc finger MYM-type protein 2 (ZMYM2, Homo sapiens, UniProt Q9UBW7)	degrader, quantitative proteomics, item: protein abundance	Jurkat	1 µM, 4 h	reference: DMSO	log2 fold change	-0.416
[CH3][Ti+2][O]C(=O)c1ccc([S][Au][PH](c2ccccc2)(c2ccccc2)c2ccccc2)cc1.c1cc[cH-]c1.c1cc[cH-]c1	MAP kinase-activated protein kinase 3 (MAPKAPK3, Homo sapiens, UniProt Q16644)	kinase activity, HotSpot radiometric		1 µM, with: ATP 10 µM	reference: vehicle	remaining activity	42% and 41.5%
CC[C@H](C)[C@@H]1NC(=O)[C@H](CC(C)C)NC(=O)CNC(=O)[C@H](CCCNC(=N)N)NC(=O)[C@H](Cc2c[nH]c3ccccc23)NC(=O)[C@H](CCSC)NC(=O)[C@H](CO)NC(=O)[C@H](CCC(=O)O)NC(=O)[C@H](Cc2ccccc2)NC(=O)[C@H](CC(=O)O)NC(=O)[C@H]([C@@H](C)O)NC(=O)CNC(=O)[C@H](CCC(=O)O)NC(=O)[C@H]([C@@H](C)O)NC(=O)CNC(=O)[C@H](CC(=O)O)NC1=O	E3 ubiquitin-protein ligase Mdm2 (MDM2, Homo sapiens, UniProt Q00987)	MDM2-ligand binding, inhibitor, AlphaLISA competition		0.02441 µM, with: GST-tagged MDM2 ligand	lower = stronger inhibition	AlphaLISA signal	11400 a.u. and 10700 a.u. and 11100 a.u.
C=CC(=O)Nc1cc(-c2ccc(C(=O)N3CCCC(O)(CC)C3)cc2)ccc1F (stereo not shown)	DNA dC->dU-editing enzyme APOBEC-3B, C-terminal domain (Homo sapiens, UniProt Q9UH17)	covalent adduct, intact protein MS, item: mass +397 Da adduct of 25735 Da		125 µM, 5 h, 5-fold molar excess		adducted protein	38% and 53%
CC(=O)N[C@@H](CCC(N)=O)C(=O)N[C@@H](CC1CCCCC1)C(=O)N[C@@H](CNC(=O)CCl)C(=O)N[C@@H](CC(C)C)C(=O)N[C@@H](Cc1ccccc1)C(=O)O	Beta sliding clamp (Escherichia coli, UniProt P0A988)	binding, isothermal titration calorimetry		25 °C		ΔG	-9.2 kcal/mol
O=C(CN1CN(c2ccccc2)C2(CCN(C(=O)c3cnc4[nH]ncc4c3)CC2)C1=O)NCC(F)(F)F	Cyclin-dependent kinase 13 (CDK13, Homo sapiens, UniProt Q14004)	inhibitor		concentration not given		inhibition	< 50%
O=C(N1CCCCC1)n1ccnn1	Platelet-activating factor acetylhydrolase IB subunit alpha1 (Pafah1b3, Mus musculus, UniProt Q61205)	enzyme activity, inhibitor, competitive ABPP-SILAC, item: Pafah1b3	mouse T-cells	concentration not given, 4 h, treated in situ	reference: DMSO	activity ratio	1.72
N[C@H](C(=O)N1CCCC1)C1CCN(c2nccc3c(-c4ncc(Cl)cc4Cl)cccc23)CC1	Protein-arginine deiminase type-4 (PADI4, Homo sapiens, UniProt Q9UM07)	thermal shift		0.09521 µM		melting temperature	53 °C and 53.5 °C
CCOC(=O)[C@@H]1Cc2c(cc([N+](=O)[O-])cc2[N+](=O)[O-])[C@H](O)[C@]12C(=O)Nc1ccc(Br)cc12	Phosphatidylinositol 4-phosphate 3-kinase C2 domain-containing subunit beta (PIK3C2B, Homo sapiens, UniProt O00750)	binding, competition with immobilised ligand		0.1 µM		remaining binding	99%
CC(C)OC(=O)OCOC(=O)C(CCC(=O)O)CP(=O)(OCOC(=O)OC(C)C)OCOC(=O)OC(C)C (stereo not shown)	Glutamate carboxypeptidase 2 (Rattus norvegicus, UniProt P70627)	PET	rat, kidney	intravenous, 10 mg/kg, 30 min before tracer, with: [68Ga]Ga-PSMA tracer	reference: controls	reduction of tracer uptake	69%
CC(C)[C@H]1NC(=O)C[C@H]2/C=C/CCSSC[C@@H](NC1=O)C(=O)N[C@H](Cc1cccc3ccccc13)C(=O)NCC(=O)O2	Mitogen-activated protein kinase 8 (MAPK8, Homo sapiens, UniProt P45983)	enzyme activity, inhibitor		10 µM		inhibition	-12.8%
C#CCCCCOc1ccc2c(c1)CCCN2C(=O)CCl	Adipocyte plasma membrane-associated protein (Homo sapiens, UniProt Q9HDC9)	mass spectrometry profiling, item: APMAP	H460 cell lysate	100 µM over 10 µM, UniProt Q9HDC9	reference: high over low concentration	reactivity ratio	1.55
O=C1NC(=O)c2c1c1cc(F)c[n+]3c1c1c2c2cc(O)ccc2[n]1[Ru-4]312([N]=C=S)[S+]3CC[S+]1CC[S+]2CC3 (stereo not shown)	Macrophage-stimulating protein receptor (MST1R, Homo sapiens, UniProt Q04912)	enzyme activity		100 nM, human enzyme, with: 10 µM ATP	reference: untreated	remaining activity	92%
CCn1nc(Cl)c2c1-c1cnc(N)c(c1)O[C@H](C)c1cc(F)ccc1-c1nn(C)cc1C2	Insulin-like growth factor 1 receptor (IGF1R, Homo sapiens, UniProt P08069)	kinase activity, inhibitor			reference: IC50 IGF1R over IC50 ALK	selectivity ratio	160 fold
CS(C)(=O)=Nc1ccc(-c2ccc(-c3nc4cc(O[C@@H]5CO[C@H]6[C@@H]5OC[C@H]6O)[nH]c4cc3F)cc2)cc1	P2X receptor	binding		10 µM		inhibition	-9%
Cc1n[nH]c(C)c1CCCOc1cc(OCCCCCCNCCOCCOCCn2cc(CNc3ccc(C(=O)O)cc3)nn2)cc(C(=O)O)c1	Transthyretin (TTR, Homo sapiens, UniProt P02766)	fluorescent probe exclusion	human serum	10 µM, 1 days, ratio 6:00:00		probe binding remaining	10.3%
CC[C@H](C)[C@H](NC(=O)[C@H](CCCNC(=N)N)NC(=O)[C@H](CCCNC(=N)N)NC(=O)[C@H](CC(C)C)NC(=O)[C@H](Cc1ccccc1)NC(=O)CNC(=O)CNC(=O)[C@@H](N)Cc1ccc(O)cc1)C(=O)N[C@@H](CCCNC(=N)N)C(=O)N1CCC[C@H]1C(=O)N[C@@H](CCCCN)C(=O)N[C@@H](CC(C)C)C(=O)N[C@@H](CCCCN)C(=O)O	Probable G-protein coupled receptor 139 (GPR139, Homo sapiens, UniProt Q6DWJ6)	GαoB activation, agonist, BRET	HEK293T/17	40 µM		Emax	50.5%
CCCCC/C=C\C/C=C\C/C=C\C/C=C\CCCC(=O)NCCc1ccc(O)c(O)c1	Transient receptor potential cation channel subfamily V member 1 (Trpv1, Mus musculus, UniProt Q704Y3, T551S)	ion current, agonist, whole-cell patch clamp		T551S		Hill coefficient	1.59 ± 0.39

Excerpt of the above:
Structure (SMILES)	target	test	test system	setting	scale	quantity	result
CC[C@H](C)[C@@H]1NC(=O)[C@H](CC(C)C)NC(=O)CNC(=O)[C@H](CCCNC(=N)N)NC(=O)[C@H](Cc2c[nH]c3ccccc23)NC(=O)[C@H](CCSC)NC(=O)[C@H](CO)NC(=O)[C@H](CCC(=O)O)NC(=O)[C@H](Cc2ccccc2)NC(=O)[C@H](CC(=O)O)NC(=O)[C@H]([C@@H](C)O)NC(=O)CNC(=O)[C@H](CCC(=O)O)NC(=O)[C@H]([C@@H](C)O)NC(=O)CNC(=O)[C@H](CC(=O)O)NC1=O	E3 ubiquitin-protein ligase Mdm2 (MDM2, Homo sapiens, UniProt Q00987)	MDM2-ligand binding, inhibitor, AlphaLISA competition		0.02441 µM, with: GST-tagged MDM2 ligand	lower = stronger inhibition	AlphaLISA signal	11400 a.u. and 10700 a.u. and 11100 a.u.
N[C@H](C(=O)N1CCCC1)C1CCN(c2nccc3c(-c4ncc(Cl)cc4Cl)cccc23)CC1	Protein-arginine deiminase type-4 (PADI4, Homo sapiens, UniProt Q9UM07)	thermal shift		0.09521 µM		melting temperature	53 °C and 53.5 °C
CC(=O)N[C@@H](CCC(N)=O)C(=O)N[C@@H](CC1CCCCC1)C(=O)N[C@@H](CNC(=O)CCl)C(=O)N[C@@H](CC(C)C)C(=O)N[C@@H](Cc1ccccc1)C(=O)O	Beta sliding clamp (Escherichia coli, UniProt P0A988)	binding, isothermal titration calorimetry		25 °C		ΔG	-9.2 kcal/mol
C=CC(=O)Nc1cc(-c2ccc(C(=O)N3CCCC(O)(CC)C3)cc2)ccc1F (stereo not shown)	DNA dC->dU-editing enzyme APOBEC-3B, C-terminal domain (Homo sapiens, UniProt Q9UH17)	covalent adduct, intact protein MS, item: mass +397 Da adduct of 25735 Da		125 µM, 5 h, 5-fold molar excess		adducted protein	38% and 53%
